Measurements collected from several papers.
Every numbered part comes from another study and shows a few of its results, in no order.
Sequence of UniProt P49137 (whole entry, looked up): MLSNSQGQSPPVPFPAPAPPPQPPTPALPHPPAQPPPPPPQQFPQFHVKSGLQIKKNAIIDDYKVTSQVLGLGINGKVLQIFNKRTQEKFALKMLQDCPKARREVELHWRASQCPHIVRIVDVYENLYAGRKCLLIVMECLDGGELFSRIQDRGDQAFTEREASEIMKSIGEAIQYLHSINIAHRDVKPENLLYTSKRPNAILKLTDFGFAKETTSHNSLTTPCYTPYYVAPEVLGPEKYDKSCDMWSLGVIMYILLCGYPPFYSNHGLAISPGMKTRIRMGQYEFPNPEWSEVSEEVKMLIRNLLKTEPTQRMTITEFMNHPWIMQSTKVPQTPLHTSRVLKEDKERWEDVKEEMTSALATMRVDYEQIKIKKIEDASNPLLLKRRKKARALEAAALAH
Sequence of UniProt Q9HC98 (whole entry, looked up): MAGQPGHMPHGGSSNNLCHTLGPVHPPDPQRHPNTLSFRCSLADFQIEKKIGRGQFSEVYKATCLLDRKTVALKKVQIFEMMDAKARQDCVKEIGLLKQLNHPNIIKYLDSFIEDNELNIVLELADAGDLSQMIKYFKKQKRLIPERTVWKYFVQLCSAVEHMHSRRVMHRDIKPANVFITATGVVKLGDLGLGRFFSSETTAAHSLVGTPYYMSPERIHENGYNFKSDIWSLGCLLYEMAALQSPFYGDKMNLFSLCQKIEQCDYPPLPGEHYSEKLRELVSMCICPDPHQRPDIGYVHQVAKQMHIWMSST
Sequence of UniProt P36896 (whole entry, looked up): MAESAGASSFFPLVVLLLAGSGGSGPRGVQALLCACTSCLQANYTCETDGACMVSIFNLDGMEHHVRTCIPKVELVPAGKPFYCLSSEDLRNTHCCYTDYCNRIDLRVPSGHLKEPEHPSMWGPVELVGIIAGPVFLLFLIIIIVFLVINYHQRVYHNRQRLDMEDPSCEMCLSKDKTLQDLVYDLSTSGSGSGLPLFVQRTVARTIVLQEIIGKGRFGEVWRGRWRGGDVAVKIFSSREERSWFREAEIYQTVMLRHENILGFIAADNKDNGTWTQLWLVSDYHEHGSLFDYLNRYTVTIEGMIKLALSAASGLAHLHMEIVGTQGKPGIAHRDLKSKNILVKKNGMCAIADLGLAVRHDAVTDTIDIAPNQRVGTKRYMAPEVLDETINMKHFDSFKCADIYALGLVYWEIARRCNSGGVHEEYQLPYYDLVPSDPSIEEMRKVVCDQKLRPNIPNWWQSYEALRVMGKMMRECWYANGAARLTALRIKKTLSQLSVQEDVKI
Sequence of UniProt P27037 (whole entry, looked up): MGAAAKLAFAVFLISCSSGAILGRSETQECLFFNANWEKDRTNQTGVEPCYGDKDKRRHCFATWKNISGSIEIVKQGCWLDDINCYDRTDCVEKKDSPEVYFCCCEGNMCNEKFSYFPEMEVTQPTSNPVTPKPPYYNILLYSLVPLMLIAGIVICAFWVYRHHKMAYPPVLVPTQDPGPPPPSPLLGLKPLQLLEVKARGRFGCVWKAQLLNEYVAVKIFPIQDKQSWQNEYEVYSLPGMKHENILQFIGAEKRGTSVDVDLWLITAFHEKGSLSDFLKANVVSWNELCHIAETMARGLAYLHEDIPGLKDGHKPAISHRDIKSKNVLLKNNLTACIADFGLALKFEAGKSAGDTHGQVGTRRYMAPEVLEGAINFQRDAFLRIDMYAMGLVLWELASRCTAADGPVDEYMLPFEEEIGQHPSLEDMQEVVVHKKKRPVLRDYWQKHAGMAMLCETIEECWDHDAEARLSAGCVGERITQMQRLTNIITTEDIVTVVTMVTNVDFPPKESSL
Sequence of UniProt Q12866 (whole entry, looked up): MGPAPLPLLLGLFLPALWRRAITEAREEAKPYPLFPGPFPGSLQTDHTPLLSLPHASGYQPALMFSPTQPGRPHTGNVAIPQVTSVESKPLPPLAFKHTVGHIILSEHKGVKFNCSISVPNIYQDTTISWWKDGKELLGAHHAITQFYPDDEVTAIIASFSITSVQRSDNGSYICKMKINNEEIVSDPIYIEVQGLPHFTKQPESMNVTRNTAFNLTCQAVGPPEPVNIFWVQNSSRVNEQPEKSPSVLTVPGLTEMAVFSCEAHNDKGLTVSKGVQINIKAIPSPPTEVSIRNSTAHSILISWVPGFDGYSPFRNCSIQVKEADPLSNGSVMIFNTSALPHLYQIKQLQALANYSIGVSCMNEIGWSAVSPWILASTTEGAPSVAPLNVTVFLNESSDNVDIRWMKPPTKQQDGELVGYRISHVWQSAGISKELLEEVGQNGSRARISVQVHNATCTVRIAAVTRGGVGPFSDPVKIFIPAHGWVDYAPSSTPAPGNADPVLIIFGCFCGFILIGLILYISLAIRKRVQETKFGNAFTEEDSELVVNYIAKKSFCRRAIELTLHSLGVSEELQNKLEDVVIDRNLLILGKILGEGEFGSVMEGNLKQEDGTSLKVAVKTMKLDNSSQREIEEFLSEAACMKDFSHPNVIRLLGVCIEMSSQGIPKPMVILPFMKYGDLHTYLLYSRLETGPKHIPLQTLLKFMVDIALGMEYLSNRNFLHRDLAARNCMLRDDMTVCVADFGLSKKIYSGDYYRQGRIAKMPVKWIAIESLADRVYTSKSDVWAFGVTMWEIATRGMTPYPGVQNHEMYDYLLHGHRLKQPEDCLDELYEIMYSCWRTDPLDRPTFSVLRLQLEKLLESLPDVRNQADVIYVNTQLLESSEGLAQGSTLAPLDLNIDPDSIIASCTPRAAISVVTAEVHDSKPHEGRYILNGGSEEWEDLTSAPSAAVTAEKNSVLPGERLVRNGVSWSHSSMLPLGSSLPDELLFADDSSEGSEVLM
Sequence of UniProt Q8IW41 (whole entry, looked up): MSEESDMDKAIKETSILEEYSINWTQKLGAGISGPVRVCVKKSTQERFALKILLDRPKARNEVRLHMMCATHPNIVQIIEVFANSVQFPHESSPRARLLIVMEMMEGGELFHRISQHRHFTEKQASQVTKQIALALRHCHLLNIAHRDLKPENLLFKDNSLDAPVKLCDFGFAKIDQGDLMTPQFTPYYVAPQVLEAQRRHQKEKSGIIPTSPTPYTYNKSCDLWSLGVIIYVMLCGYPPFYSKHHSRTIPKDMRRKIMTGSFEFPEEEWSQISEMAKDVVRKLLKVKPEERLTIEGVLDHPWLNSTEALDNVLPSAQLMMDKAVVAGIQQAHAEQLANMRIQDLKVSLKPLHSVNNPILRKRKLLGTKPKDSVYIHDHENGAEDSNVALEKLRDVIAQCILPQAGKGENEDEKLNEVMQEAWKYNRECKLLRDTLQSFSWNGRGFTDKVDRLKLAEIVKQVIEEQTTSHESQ
Sequence of UniProt Q02763 (whole entry, looked up): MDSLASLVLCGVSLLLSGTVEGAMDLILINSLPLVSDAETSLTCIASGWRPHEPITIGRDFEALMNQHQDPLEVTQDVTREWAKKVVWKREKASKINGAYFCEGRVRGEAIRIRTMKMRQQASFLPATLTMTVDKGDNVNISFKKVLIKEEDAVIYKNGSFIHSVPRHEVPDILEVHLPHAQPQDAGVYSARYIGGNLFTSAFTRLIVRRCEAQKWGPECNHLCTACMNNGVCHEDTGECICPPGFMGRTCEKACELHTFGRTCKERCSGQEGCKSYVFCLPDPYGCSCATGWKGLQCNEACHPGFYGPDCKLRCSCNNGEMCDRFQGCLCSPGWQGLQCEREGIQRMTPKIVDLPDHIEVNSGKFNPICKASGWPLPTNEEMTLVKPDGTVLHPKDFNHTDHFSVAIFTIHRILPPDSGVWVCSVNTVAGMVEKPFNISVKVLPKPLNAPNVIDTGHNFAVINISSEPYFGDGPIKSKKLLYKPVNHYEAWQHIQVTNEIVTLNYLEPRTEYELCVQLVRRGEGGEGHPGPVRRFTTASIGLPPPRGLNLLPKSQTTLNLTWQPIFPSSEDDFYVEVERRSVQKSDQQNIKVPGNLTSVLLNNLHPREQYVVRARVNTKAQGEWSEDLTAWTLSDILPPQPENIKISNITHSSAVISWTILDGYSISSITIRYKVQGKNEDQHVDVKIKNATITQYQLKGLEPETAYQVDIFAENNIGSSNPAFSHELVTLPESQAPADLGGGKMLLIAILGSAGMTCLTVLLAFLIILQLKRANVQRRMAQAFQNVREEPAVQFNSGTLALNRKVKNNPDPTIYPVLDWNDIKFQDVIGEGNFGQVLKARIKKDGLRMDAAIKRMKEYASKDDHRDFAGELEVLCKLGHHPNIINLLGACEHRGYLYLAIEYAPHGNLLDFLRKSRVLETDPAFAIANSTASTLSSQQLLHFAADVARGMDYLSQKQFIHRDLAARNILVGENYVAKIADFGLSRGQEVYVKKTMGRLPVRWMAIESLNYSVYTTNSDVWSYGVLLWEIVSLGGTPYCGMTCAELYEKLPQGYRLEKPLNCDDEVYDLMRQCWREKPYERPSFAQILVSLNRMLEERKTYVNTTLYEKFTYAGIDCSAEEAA

Set 1
Structure (SMILES): O=C1c2ccccc2-c2n[nH]c3cccc1c23
Read-out: enzyme activity
Action: inhibitor
Concentration: 0.5 µM
Reference: control
| target | remaining activity |
| --- | --- |
| Serine/threonine-protein kinase A-Raf (ARAF, Homo sapiens, UniProt P10398) | 105% |
| Fibroblast growth factor receptor 1 (FGFR1, Homo sapiens, UniProt P11362) | 69.4% |
| Angiopoietin-1 receptor (TEK, Homo sapiens, UniProt Q02763) | 92.2% |
| Ephrin type-A receptor 3 (EPHA3, Homo sapiens, UniProt P29320) | 94.2% |
| Mitogen-activated protein kinase 3 (MAPK3, Homo sapiens, UniProt P27361) | 102% |
| Tyrosine-protein kinase JAK3 (JAK3, Homo sapiens, UniProt P52333) | 74% |
| Mitogen-activated protein kinase kinase kinase 5 (MAP3K5, Homo sapiens, UniProt Q99683) | 47.8% |
| Serine/threonine-protein kinase ULK2 (ULK2, Homo sapiens, UniProt Q8IYT8) | 114% |
| Serine/threonine-protein kinase Nek1 (NEK1, Homo sapiens, UniProt Q96PY6) | 70.7% |
| Fibroblast growth factor receptor 3 (FGFR3, Homo sapiens, UniProt P22607) | 85.1% |
| Casein kinase I isoform gamma-3 (CSNK1G3, Homo sapiens, UniProt Q9Y6M4) | 117% |
| Mitogen-activated protein kinase kinase kinase 14 (MAP3K14, Homo sapiens, UniProt Q99558) | 94.2% |
| Macrophage-stimulating protein receptor (MST1R, Homo sapiens, UniProt Q04912) | 103% |
| Tyrosine-protein kinase FRK (FRK, Homo sapiens, UniProt P42685) | 95.1% |
| MAP kinase-activated protein kinase 2 (MAPKAPK2, Homo sapiens, UniProt P49137) | 98.7% |
| Ribosomal protein S6 kinase alpha-2 (RPS6KA2, Homo sapiens, UniProt Q15349) | 80.3% |
| Serine/threonine-protein kinase Nek6 (NEK6, Homo sapiens, UniProt Q9HC98) | 97.6% |
| Serine/threonine-protein kinase TBK1 (TBK1, Homo sapiens, UniProt Q9UHD2) | 81.4% |
| Casein kinase I isoform gamma-2 (CSNK1G2, Homo sapiens, UniProt P78368) | 87.8% |
| Tyrosine-protein kinase Mer (MERTK, Homo sapiens, UniProt Q12866) | 83.7% |
| Serine/threonine-protein kinase TAO2 (TAOK2, Homo sapiens, UniProt Q9UL54) | 101% |
| Dual specificity mitogen-activated protein kinase kinase 2 (MAP2K2, Homo sapiens, UniProt P36507) | 94% |
| Rhodopsin kinase GRK7 (GRK7, Homo sapiens, UniProt Q8WTQ7) | 91.9% |
| Activin receptor type-1B (ACVR1B, Homo sapiens, UniProt P36896) | 101% |

Set 2
Target: Calcium/calmodulin-dependent protein kinase type II subunit alpha (CAMK2A, Homo sapiens, UniProt Q9UQM7)
Sequence of UniProt Q9UQM7 (whole entry, looked up): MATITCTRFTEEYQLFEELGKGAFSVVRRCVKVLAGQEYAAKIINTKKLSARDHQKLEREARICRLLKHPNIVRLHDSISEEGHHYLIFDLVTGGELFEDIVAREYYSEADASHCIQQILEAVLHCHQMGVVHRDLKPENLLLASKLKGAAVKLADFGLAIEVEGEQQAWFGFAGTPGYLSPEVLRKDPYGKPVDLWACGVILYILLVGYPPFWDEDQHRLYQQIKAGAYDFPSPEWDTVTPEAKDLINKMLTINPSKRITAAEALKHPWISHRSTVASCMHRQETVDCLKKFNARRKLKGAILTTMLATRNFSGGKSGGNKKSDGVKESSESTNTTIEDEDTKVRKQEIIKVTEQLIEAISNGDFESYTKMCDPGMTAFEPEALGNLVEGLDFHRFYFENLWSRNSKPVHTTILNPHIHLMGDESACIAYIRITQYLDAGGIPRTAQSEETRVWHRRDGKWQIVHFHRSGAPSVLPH
Read-out: enzyme activity
Action: inhibitor
Concentration: 10 µM
| Compound | inhibition |
| --- | --- |
| CS(=O)(=O)OC[C@H](O)[C@@H](O)COS(C)(=O)=O | 0% |
| COc1ccc2cc([C@H](C)C(=O)O)ccc2c1 | -2% |
| CN1CCN(c2ccc(C(=O)Nc3n[nH]c4ccc(Cc5cc(F)cc(F)c5)cc34)c(NC3CCOCC3)c2)CC1 | -1% |
| C[C@@H]1O[C@@H](O[C@@H]2[C@@H](O)[C@H](OCCc3ccc(O)c(O)c3)O[C@H](CO)[C@H]2OC(=O)/C=C/c2ccc(O)c(O)c2)[C@H](O)[C@H](O)[C@H]1O | -16% |
| O=C(/C=C/c1ccc(O)c(O)c1)OC[C@H]1O[C@@H](OCCc2ccc(O)c(O)c2)[C@H](O)[C@@H](O)[C@@H]1O | -37% |
| COc1cc2oc(=O)ccc2cc1O | -18% |
| COc1c2ccoc2nc2c(O)cccc12 | -48% |
| C[C@H](CC[C@@H](O)C(C)(C)O)[C@H]1CC[C@@]2(C)[C@@H]3CC=C4[C@@H](CC[C@H](O[C@@H]5O[C@H](CO)[C@@H](O)[C@H](O)[C@H]5O)C4(C)C)[C@]3(C)[C@H](O)C[C@]12C | 6% |
| CC(=O)O[C@@H]1C[C@H](C)CC[C@H]1C(C)C | 13% |
| C=CCC1=C[C@]2(OC)C(=O)C(OC)(OC)[C@H]1[C@@H]1C(OC)(OC)C(=O)C(OC)=C[C@@]12CC=C | 5% |
| O=c1c(O)c(-c2ccc(O)cc2)oc2cc(O)ccc12 | 57% |
| COc1ccc2c(c1)C(=O)N(CCc1ccc(S(=O)(=O)NC(=O)NC3CCCCC3)cc1)C(=O)C2(C)C | -10% |
| CCOC(=O)/C=C/C(=O)OCC | -59% |

Set 3
Host: human
Matrix: microsomes or S9
Concentration: 2 µM
Time: 0.5 h
| Compound | remaining compound [%] |
| --- | --- |
| O=C(O)CCc1ccc(N2Cc3ccc(NC(=O)c4ccccc4)cc3C2=O)cc1 | 88.5 |
| COc1cccc2c1OCC(C(=O)N1CCC3(CCCO3)CC1)C2 (stereo not drawn) | 63.9 |
| Cc1cc(OCC(=O)N(C(C)C)C(C)C)ccc1Cl | 0.283 |
| CN(C)c1cncc(-c2cccc(-n3cccn3)c2)n1 | 1.65 |
| C[C@H]1CN(c2c(F)cc3c(=O)c(C(=O)O)cn4c3c2OC[C@@H]4C)C[C@H]1N | 93.5 |
| CCC1=NOC(CNC(=O)c2cc(C)c(CC)n(C)c2=O)C1 (stereo not drawn) | 67.8 |
| Cc1noc(C)c1CCC(=O)Nc1cccc2ncccc12 | 69.7 |
| Clc1nc2cccnc2n2nc(-c3ccco3)cc12 | 3.79 |
| COc1ccccc1/C=C/c1nc(S(=O)(=O)c2ccccc2)c(N2CCN(C)CC2)o1 | 12.8 |
| CC(C)CNCC(=O)Nc1ccc(C(=O)N2c3ccc(S(=O)(=O)N4CC(c5ccccc5)NC4=O)cc3CC2C)cc1 (stereo not drawn) | 3.24 |
| COC(=O)c1ccc(-c2nc3c(N)nc(S(C)(=O)=O)nc3n2C)cc1 | 6.82 |
| CCOC(=O)C1C2CN(c3ccc(C(=O)NCCNC(=O)N4CCN(C)CC4)cn3)CC21 (stereo not drawn) | > 99 |
| COc1cc2c(cc1OC)/C(=N\c1ccccc1)N(Cc1ccc(F)c(F)c1)CC2 | 0.391 |

Set 4
SMILES: CN(c1ccnc(CNc2nc(Nc3ccc4c(c3)CC(=O)N4)ncc2C(F)(F)F)n1)S(C)(=O)=O
Technique: competition with immobilised ligand
Concentration: 1 µM
| target | read-out | remaining binding |
| --- | --- | --- |
| Insulin receptor-related protein (INSRR, Homo sapiens, UniProt P14616) | cell-free assay | 100% |
| MAP kinase-activated protein kinase 2 (MAPKAPK2, Homo sapiens, UniProt P49137) | cell-free assay | 100% |
| Activin receptor type-2A (ACVR2A, Homo sapiens, UniProt P27037) | cell-free assay | 100% |
| Interferon-induced, double-stranded RNA-activated protein kinase (EIF2AK2, Homo sapiens, UniProt P19525) | cell-free assay | 82% |
| cAMP-dependent protein kinase catalytic subunit PRKX (PRKX, Homo sapiens, UniProt P51817) | cell-free assay | 15% |
| Serine/threonine-protein kinase Nek6 (NEK6, Homo sapiens, UniProt Q9HC98) | cell-free assay | 84% |
| Vascular endothelial growth factor receptor 2 (KDR, Homo sapiens, UniProt P35968) | cell-free assay | 56% |
| Proto-oncogene tyrosine-protein kinase receptor Ret (RET, Homo sapiens, UniProt P07949, M918T) | cell-free assay | 50% |
| Serine/threonine-protein kinase RIO3 (RIOK3, Homo sapiens, UniProt O14730) | cell-free assay | 8.5% |
| MAP kinase-activated protein kinase 5 (MAPKAPK5, Homo sapiens, UniProt Q8IW41) | cell-free assay | 94% |
| Receptor-type tyrosine-protein kinase FLT3 (FLT3, Homo sapiens, UniProt P36888, D835Y) | cell-free assay | 2% |
| STE20/SPS1-related proline-alanine-rich protein kinase (STK39, Homo sapiens, UniProt Q9UEW8) | cell-free assay | 100% |
| Calcium/calmodulin-dependent protein kinase type 1 (CAMK1, Homo sapiens, UniProt Q14012) | cell-free assay | 72% |
| Tyrosine-protein kinase Blk (BLK, Homo sapiens, UniProt P51451) | cell-free assay | 40% |
| Tyrosine-protein kinase ABL2 (ABL2, Homo sapiens, UniProt P42684) | cell-free assay | 75% |
| Tyrosine-protein kinase Lyn (LYN, Homo sapiens, UniProt P07948) | cell-free assay | 80% |
| Serine/threonine-protein kinase ICK (CILK1, Homo sapiens, UniProt Q9UPZ9) | cell-free assay | 100% |
| Vascular endothelial growth factor receptor 1 (FLT1, Homo sapiens, UniProt P17948) | cell-free assay | 69% |
| Serine/threonine-protein kinase Nek7 (NEK7, Homo sapiens, UniProt Q8TDX7) | cell-free assay | 68% |
| Ephrin type-B receptor 2 (EPHB2, Homo sapiens, UniProt P29323) | cell-free assay | 81% |
| Tyrosine-protein kinase Fer (FER, Homo sapiens, UniProt P16591) | cell-free assay | 78% |
| Receptor-type tyrosine-protein kinase FLT3 (FLT3, Homo sapiens, UniProt P36888, ITD) | cell-free assay | 5.5% |
| Dual specificity protein kinase CLK2 (CLK2, Homo sapiens, UniProt P49760) | binding | 0% |
| Epidermal growth factor receptor (EGFR, Homo sapiens, UniProt P00533, A750P/del747-749) | cell-free assay | 75% |
| Inhibitor of nuclear factor kappa-B kinase subunit epsilon (IKBKE, Homo sapiens, UniProt Q14164) | cell-free assay | 18% |

For quick reference, copied from above (set 1):
| target | remaining activity |
| --- | --- |
| Serine/threonine-protein kinase A-Raf (ARAF, Homo sapiens, UniProt P10398) | 105% |
| Fibroblast growth factor receptor 1 (FGFR1, Homo sapiens, UniProt P11362) | 69.4% |
| Angiopoietin-1 receptor (TEK, Homo sapiens, UniProt Q02763) | 92.2% |
| Ephrin type-A receptor 3 (EPHA3, Homo sapiens, UniProt P29320) | 94.2% |
| Mitogen-activated protein kinase 3 (MAPK3, Homo sapiens, UniProt P27361) | 102% |
